Measured values collected from several papers.
Parts stem from different laboratories: compare values within a part only. Positions count from the first letter of the parent shown.

Study 1 — technique: protein-binding microarray; molecule type: double-stranded DNA, one strand shown; medium: in vitro; concentration: 0.8 µM; setting: whole 60-bp probe, no competitor; direction: higher = stronger binding; shared flanks, not repeated: … GTCTTGATTCGCTTGACGCTGCTG
Target: Centromere-binding protein 1, full length, N-terminal tag (CBF1, Saccharomyces cerevisiae, UniProt P17106, residues 1-351)
Sequence of UniProt P17106 (whole entry, looked up): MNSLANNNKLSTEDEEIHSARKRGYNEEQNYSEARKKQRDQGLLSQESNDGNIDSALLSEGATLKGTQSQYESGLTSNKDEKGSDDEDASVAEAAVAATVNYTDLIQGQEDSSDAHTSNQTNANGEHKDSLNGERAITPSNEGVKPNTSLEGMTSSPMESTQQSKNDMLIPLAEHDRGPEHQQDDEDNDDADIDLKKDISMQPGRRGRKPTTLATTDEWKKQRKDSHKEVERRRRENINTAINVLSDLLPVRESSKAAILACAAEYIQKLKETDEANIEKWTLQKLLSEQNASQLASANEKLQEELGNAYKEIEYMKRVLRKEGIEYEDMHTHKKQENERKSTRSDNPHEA
Strand | fluorescence intensity
GAATATAAAATATACCATGTGGTTTGAGTTGTGTAG | 848 a.u.
CTAACTTTATACCACCACCACATGCCATACTCATTC | 617 a.u.
CTATATTTTGTATATCTGATGCTATAGCCTCTATTC | 533 a.u.
CTACCTCCCGAACAACGTGAAATCTTTTTGCTTTTC | 613 a.u.
CTAGTCCATCACGGTCACATGGTGCAGTACTTCTTC | 5230 a.u.
GAATTTGAGACCCCGCGGGTGATATGGCCCCTGTAG | 481 a.u.
GAAATGTGTTCACGTGACGCTATCGACACCCGCTAG | 25000 a.u.
CTATTAGTTGAACATGTGACGAAAGCTCTGCTATTC | 6550 a.u.
CTAAGCTAAGTAACCAACGTGGTGCCATATTCATTC | 590 a.u.
GAACTCGTTTTTAGCCACACCATACCCCCTTTATAG | 476 a.u.
GAACTTTAAATCGGTGACGATGCGAAAGCAAATTAG | 530 a.u.
GAACGATTTTTGTCACCTGCAAACTCTTCTTGTTAG | 924 a.u.
CCTAACTACTATAAGAACATCAGATAGCTTCGTACA | 510 a.u.
GAAGCTATCCAAATCCACGTTTCTTTTTATTTATAG | 569 a.u.
GAAAAATTTATACTCTACACCACCTTCGTTATTTAG | 493 a.u.
TGTACGAAGCTATGTCACGTGTATATAGTAGTTAGG | 15700 a.u.
CTAGATTGCGTTCGTGATTTGAAAAGCAGCGTTTTC | 667 a.u.

Study 2 — technique: protein binding microarray; molecule type: double-stranded DNA, one strand shown; medium: in vitro; concentration: not given; reference: not given; direction: higher = stronger binding
Target: Histone acetyltransferase KAT6A, winged helix 2, GST fusion (KAT6A, Homo sapiens, UniProt Q92794, residues 85-181)
Setting: 8-mer, flanks averaged, mean of 2 arrays, mostly near background
Construct (chain): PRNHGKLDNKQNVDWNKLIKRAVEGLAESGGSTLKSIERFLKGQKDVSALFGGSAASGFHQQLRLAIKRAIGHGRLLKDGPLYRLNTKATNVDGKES
Strand | E-score
CGAGTCCA | -0.175
CCATCATC | -0.158
CCATATCC | -0.142
AATGTCTA | -0.0306
AAGATTAT | -0.149
ATTTTACC | 0.0465
CGGGGTCA | 0.0868
ACGACGGA | -0.047
GGCGTCTA | -0.0509
CTGGTTGC | 0.11
ATTTGTAC | -0.0273
CTGGACGC | 0.104
GACAGTGA | -0.0449
GGGAACGA | -0.0227

Study 3 — technique: aptamer microarray, sandwich; molecule type: DNA with 2'F-ANA; medium: in vitro; concentration: 200 nM; with: Cy3 exosite-II aptamer, 400 nM; direction: higher = stronger binding; strand: GGTTGGTGTGGTTGG
Target: Prothrombin, mature alpha-thrombin (F2, Homo sapiens, UniProt P00734)
Setting: whole 15-mer aptamer, many near background
Modification | mean fluorescence intensity [a.u.]
2'F-ANA at 1 2 3 6 7 8 9 10 11 14 15 | 55.5
2'F-ANA at 1 2 3 4 7 9 11 13 14 | 55.5
2'F-ANA at 1 2 6 8 9 | 182
2'F-ANA at 5 6 7 9 11 12 13 14 | 47.6
2'F-ANA at 1 4 5 6 7 8 9 10 11 12 14 15 | 52.7
2'F-ANA at 1 2 3 7 8 10 13 14 | 52.3
2'F-ANA at 3 5 6 9 13 14 | 64.8
2'F-ANA at 3 4 5 6 9 10 11 12 15 | 56.1
2'F-ANA at 4 8 13 14 15 | 87.4
2'F-ANA at 2 4 10 12 13 15 | 115
2'F-ANA at 2 3 4 5 6 8 9 10 14 | 52.5
2'F-ANA at 2 4 8 9 11 13 | 201
2'F-ANA at 1 2 8 9 11 12 14 | 141
2'F-ANA at 2 3 5 6 7 8 9 10 | 52.6
2'F-ANA at 3 8 9 10 12 13 14 15 | 307
2'F-ANA at 2 4 6 7 11 13 14 15 | 77.1
2'F-ANA at 1 2 6 13 | 110

Study 4 — technique: universal PBM; molecule type: double-stranded DNA, one strand shown; medium: in vitro; concentration: 600 nM; direction: higher = stronger binding
Target: Sal-like protein 4, full length isoform A (SALL4, Homo sapiens, UniProt Q9UJQ4, residues 1-1053)
Sequence of UniProt Q9UJQ4 (whole entry, looked up): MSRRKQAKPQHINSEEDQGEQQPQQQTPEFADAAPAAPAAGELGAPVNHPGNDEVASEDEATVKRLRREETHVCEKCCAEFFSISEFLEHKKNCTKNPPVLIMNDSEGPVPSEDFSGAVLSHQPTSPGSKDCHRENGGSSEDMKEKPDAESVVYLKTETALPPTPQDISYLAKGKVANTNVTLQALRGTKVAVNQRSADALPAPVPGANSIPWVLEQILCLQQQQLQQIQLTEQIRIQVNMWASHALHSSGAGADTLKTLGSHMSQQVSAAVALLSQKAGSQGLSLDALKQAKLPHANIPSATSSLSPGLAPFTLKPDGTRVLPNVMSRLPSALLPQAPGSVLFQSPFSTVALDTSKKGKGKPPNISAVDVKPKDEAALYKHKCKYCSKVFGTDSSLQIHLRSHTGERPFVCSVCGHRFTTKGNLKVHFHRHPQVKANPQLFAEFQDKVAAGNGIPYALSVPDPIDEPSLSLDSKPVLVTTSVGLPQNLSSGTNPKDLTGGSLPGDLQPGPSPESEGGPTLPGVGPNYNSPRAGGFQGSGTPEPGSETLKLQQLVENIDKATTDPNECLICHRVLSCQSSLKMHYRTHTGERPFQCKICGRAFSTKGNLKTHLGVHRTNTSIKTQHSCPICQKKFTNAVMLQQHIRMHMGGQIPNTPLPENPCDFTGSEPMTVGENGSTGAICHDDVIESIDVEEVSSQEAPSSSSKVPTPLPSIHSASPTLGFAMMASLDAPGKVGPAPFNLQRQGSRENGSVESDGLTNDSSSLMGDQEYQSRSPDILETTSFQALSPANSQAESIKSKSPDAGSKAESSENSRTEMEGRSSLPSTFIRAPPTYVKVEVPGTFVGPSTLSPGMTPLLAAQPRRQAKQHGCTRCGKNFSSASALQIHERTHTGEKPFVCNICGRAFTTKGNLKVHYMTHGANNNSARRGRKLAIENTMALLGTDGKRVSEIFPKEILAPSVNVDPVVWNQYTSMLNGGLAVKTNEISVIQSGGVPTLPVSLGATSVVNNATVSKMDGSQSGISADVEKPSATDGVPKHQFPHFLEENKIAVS
Setting: 8-mer, flanks averaged, mean of replicates
Strand | E-score
CTAAATCA | 0.105
GATTTTGA | 0.208
AGCCGTAG | -0.139
CCAAGGAA | -0.0432
AATTCACC | 0.0624
CGTAACCA | 0.0648
ACAACGGA | -0.0683
GCCACGGA | -0.236
GTGGCTAA | 0.0228
GAAAGTAA | 0.235
ACTGCACC | -0.119
CGCCGAAC | -0.0565
CGACGTCC | -0.328
CAATCACG | 0.124
GGTGCTGA | -0.301
TACATCTA | 0.221
AAGCAGCC | -0.2

Study 5 — technique: DHFR PCA, deep sequencing; medium: yeast; with: (+)-ABA 4.8 µM; reference: wild-type fitted maximum; direction: higher = stronger binding
Target: ABI1, truncated, D143A, DHFR fusion (Arabidopsis thaliana)
Setting: methotrexate growth selection, single substitutions
Parent: PYL1, truncated, DHFR fusion (Arabidopsis thaliana); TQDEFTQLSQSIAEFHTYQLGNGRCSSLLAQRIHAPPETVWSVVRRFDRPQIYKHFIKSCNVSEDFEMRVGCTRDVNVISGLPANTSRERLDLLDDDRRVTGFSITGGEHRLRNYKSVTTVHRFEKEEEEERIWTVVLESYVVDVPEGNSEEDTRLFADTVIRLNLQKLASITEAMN; partner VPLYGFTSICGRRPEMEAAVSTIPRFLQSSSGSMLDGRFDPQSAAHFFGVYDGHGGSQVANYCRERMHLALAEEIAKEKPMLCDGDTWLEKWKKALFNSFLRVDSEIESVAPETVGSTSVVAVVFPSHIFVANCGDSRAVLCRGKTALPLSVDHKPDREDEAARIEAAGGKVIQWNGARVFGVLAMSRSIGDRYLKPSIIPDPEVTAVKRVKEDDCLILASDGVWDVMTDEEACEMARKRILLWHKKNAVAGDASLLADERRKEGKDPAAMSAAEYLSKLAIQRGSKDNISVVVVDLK
Variant | relative binding score [%]
V145C | 48.7
T1H | 71.5
S42T | 55.9
S9P | 23.6
G148R | 3.75
P146W | -1.86
S80W | 33.1
E67Y | 53.6
T1R | 69.8
E147R | 47.2
S80K | 5.39
A30Q | 65.4
P83H | 3.26
S9M | 55

Study 6 — technique: RNA Bind-n-Seq; molecule type: RNA; medium: in vitro; concentration: 365 nM; reference: no-protein control; direction: higher = stronger binding
Target: RNA binding protein fox-1 homolog 2, RRM domain, GST-SBP tag (RBFOX2, Homo sapiens, UniProt O43251-10, residues 100-194)
Setting: natural RNA segment, single round, ends assumed
Shared flanks, not repeated: GGGAGUUCUACAGUCCGACGAUC … UGGAAUUCUCGGGUGCCAA
Target sequence (chain): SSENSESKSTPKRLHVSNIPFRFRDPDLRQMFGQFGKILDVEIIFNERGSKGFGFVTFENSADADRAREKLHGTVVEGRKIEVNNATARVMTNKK
Strand | RBNS enrichment (R)
CUGGAAUAGCUGACUACCCAGGGAGCCACCCAGAUGGGGAAUCCAGCUUCCUUCUUCACCCGCCCCCUCCAGGGUUAUUAAGCAUUUUUUUUUUCUUUUCUGCAAACCUU | 0.851
GCCUCCAUGUCUGCUUGCAUCUAGCUUGCACAAAGAUAGAUCUUUGUGGUGAGAUCAUCUGUGUGGAGUUUUAAGAAGCUCUGGAAGAAGGUACUGCCCGCGUUUAAAGG | 1.35
AAUCUUGGCAUGUGCACAUUCCUCAGAGGUACCAGGUAUUCCCAGCCAUGCAUCUCUGUGGGAAGAUAGAAGAAUCUCAUGCUCUGCAGUUACAUAGGUAGCAAGGGUUU | 0.567
AUCACAGAUUUUUAGACAAAUUUCUUGUAUCAGGAAGAAAUACAAAUUUUGUCAUGUUUCUCAAGCAGUUUUUCUGAGUAGUUUCUGAGGAGGAACAAAUUACAAGUGUA | 0.826
CCAGCCCCAGCCUCAGGGACGGGGAGGGAGAGCCCCCUCUGGGCCCAGCAGGCAGGUGUUCUGAGGCUGGUCCCUCCUCAGUUUCCGCAGCCACAAGGCGAAACGGCCAG | 0.322
UAAAAGAAAGGCUAUCCAGUAGAGCCCAGUGCUCCCUUGUCCCUCUUUUAUGAUCAGGGUGAAAUGUACUUCCUGAUGUAAUGAACCUAAUUUGAUUUCCAUUUUAAGGU | 0.312
UACAUGCUUUCUCAUUCAAGAAUUCGUCAUCACGCAUCACAGGCCGCGUCUUUGACGGUGGGUGUCCCAUUUUUAUCCGCUACUCUUUAUUUCAUGGAGUCGUAUCAACG | 0.303

Study 7 — technique: EMSA with sequencing; molecule type: double-stranded DNA, one strand shown; medium: in vitro; concentration: 10 and 20 nM; reference: negative control set to 0; direction: higher = stronger binding
Target: Hepatocyte nuclear factor 3-alpha (Foxa1, Mus musculus, UniProt P35582, residues 1-468, full length assumed)
Setting: whole designed probe, mean of two concentrations, ends assumed
Construct (chain): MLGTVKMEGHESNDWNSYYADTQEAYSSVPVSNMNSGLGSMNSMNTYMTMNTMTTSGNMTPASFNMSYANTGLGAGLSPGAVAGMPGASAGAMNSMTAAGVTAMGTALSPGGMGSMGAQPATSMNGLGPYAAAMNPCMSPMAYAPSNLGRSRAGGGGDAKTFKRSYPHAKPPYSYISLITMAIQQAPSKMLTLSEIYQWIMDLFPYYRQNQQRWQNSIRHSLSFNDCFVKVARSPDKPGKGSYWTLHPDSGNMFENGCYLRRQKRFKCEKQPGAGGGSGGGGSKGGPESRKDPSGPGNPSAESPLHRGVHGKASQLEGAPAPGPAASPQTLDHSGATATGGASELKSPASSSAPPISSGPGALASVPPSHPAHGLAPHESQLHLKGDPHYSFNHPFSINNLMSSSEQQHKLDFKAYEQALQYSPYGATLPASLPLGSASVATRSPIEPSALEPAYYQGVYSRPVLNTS
Strand | normalised bound fraction [ratio]
GTGAGCGGTGCCCATTGATGGGGAACTTCTTCACTCTTCTCAGGCTGCTGTAAAACAGAATTGATAAAACCACATGTTTCAACTATTATTACAGTTTACATTGTAAGGAAATTTGCCTATGTAATCTAAAAAATGGAGAAAAAAGAGACTCATGTAACTTCTTTTGTAAATAGATGTATTGGGTTAGTAGCAGAACAACTGGGATTGTGAAAACAAAAATTTCACTGGGATCGTGGGGAC | 0.201
GTGAGCGGTGCCCATTGATGGGGAACAGTTCAGAATAGTATTTCTACTGAATGTGTATTGTTTTACCCATCCTAAAGTTGAAGAATCACAAGTCAAACCATCATAAGTCCAGGATTATTAGATTATATATCTTGTAGGGAAGGGAAAAGTGAAAGGAAATAATGTTCTTTCTACCCTTCTACATTATTGGCTGGAGCCCCTGTAACAAAAGACAAATTATTTCACTGGGATCGTGGGGAC | -0.022
GTGAGCGGTGCCCATTGATGGGGAACTAATAATAATAGATCCTTATTATATTTATGGAAATCTATACTAATACTTAATATGGCCTTCTTTTCTTTGGTTTTTATAGCTGGGAAACTAAGTAATCTTGAGAAACTTATCATGAGAAACTTCTCATGTCAGCCTCACTCATATACTACCCCTTCAACTTGCTGTAGAGTGTCAAAGATTAAAATCTCACTCTTTCACTGGGATCGTGGGGAC | -0.0528
